# Assay results of several laboratories.
# Each numbered part is a random draw from the data of one study; scales do not carry over between parts. “And” joins repeats or separate records; there may be more than shown.
# Chain of UniProt P41240 (whole entry, looked up): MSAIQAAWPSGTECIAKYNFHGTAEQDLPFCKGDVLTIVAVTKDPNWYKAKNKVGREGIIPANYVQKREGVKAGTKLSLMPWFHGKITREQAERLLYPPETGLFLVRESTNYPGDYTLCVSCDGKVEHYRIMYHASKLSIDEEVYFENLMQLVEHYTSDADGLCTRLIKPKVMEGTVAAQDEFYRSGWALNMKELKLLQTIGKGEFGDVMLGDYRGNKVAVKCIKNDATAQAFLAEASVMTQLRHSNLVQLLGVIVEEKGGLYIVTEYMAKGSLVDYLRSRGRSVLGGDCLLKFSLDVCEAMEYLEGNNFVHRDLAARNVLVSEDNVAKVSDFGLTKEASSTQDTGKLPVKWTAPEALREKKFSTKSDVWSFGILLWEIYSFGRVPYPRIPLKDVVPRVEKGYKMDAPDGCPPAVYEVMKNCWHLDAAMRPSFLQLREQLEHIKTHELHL
# Chain of UniProt Q15418 (whole entry, looked up): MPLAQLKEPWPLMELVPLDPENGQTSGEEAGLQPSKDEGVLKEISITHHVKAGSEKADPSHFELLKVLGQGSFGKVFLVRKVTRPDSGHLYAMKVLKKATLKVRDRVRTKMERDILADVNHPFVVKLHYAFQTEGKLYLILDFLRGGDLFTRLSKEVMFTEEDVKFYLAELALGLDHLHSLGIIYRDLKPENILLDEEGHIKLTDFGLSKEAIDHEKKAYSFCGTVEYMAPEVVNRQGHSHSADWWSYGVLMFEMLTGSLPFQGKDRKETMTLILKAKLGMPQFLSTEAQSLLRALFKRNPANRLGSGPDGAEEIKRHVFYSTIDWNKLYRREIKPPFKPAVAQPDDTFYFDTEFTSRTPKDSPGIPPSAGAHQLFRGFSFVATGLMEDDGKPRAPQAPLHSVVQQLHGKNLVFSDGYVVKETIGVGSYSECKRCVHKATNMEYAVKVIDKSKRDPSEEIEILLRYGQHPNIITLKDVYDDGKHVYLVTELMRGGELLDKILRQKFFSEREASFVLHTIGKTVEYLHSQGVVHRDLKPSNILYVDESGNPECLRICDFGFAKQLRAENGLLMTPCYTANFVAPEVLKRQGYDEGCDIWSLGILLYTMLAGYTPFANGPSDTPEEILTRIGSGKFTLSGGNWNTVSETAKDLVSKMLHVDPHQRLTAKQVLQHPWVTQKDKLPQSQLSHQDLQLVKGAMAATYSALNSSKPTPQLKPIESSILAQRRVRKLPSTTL
# Chain of UniProt Q96PN8 (whole entry, looked up): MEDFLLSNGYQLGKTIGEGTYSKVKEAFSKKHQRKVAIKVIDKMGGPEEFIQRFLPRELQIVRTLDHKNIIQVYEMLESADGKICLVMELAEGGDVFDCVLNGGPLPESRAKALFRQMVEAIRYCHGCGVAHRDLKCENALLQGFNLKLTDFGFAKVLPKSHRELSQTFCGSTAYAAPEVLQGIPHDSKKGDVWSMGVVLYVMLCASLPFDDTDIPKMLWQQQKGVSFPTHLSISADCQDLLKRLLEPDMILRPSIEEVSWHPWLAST

# Block 1 — mode: inhibitor; concentration: concentration not given; added: with ssDNA
# Target: DNA polymerase theta, helicase domain (POLQ, Homo sapiens, UniProt O75417)
# Chain of UniProt O75417 (whole entry, looked up): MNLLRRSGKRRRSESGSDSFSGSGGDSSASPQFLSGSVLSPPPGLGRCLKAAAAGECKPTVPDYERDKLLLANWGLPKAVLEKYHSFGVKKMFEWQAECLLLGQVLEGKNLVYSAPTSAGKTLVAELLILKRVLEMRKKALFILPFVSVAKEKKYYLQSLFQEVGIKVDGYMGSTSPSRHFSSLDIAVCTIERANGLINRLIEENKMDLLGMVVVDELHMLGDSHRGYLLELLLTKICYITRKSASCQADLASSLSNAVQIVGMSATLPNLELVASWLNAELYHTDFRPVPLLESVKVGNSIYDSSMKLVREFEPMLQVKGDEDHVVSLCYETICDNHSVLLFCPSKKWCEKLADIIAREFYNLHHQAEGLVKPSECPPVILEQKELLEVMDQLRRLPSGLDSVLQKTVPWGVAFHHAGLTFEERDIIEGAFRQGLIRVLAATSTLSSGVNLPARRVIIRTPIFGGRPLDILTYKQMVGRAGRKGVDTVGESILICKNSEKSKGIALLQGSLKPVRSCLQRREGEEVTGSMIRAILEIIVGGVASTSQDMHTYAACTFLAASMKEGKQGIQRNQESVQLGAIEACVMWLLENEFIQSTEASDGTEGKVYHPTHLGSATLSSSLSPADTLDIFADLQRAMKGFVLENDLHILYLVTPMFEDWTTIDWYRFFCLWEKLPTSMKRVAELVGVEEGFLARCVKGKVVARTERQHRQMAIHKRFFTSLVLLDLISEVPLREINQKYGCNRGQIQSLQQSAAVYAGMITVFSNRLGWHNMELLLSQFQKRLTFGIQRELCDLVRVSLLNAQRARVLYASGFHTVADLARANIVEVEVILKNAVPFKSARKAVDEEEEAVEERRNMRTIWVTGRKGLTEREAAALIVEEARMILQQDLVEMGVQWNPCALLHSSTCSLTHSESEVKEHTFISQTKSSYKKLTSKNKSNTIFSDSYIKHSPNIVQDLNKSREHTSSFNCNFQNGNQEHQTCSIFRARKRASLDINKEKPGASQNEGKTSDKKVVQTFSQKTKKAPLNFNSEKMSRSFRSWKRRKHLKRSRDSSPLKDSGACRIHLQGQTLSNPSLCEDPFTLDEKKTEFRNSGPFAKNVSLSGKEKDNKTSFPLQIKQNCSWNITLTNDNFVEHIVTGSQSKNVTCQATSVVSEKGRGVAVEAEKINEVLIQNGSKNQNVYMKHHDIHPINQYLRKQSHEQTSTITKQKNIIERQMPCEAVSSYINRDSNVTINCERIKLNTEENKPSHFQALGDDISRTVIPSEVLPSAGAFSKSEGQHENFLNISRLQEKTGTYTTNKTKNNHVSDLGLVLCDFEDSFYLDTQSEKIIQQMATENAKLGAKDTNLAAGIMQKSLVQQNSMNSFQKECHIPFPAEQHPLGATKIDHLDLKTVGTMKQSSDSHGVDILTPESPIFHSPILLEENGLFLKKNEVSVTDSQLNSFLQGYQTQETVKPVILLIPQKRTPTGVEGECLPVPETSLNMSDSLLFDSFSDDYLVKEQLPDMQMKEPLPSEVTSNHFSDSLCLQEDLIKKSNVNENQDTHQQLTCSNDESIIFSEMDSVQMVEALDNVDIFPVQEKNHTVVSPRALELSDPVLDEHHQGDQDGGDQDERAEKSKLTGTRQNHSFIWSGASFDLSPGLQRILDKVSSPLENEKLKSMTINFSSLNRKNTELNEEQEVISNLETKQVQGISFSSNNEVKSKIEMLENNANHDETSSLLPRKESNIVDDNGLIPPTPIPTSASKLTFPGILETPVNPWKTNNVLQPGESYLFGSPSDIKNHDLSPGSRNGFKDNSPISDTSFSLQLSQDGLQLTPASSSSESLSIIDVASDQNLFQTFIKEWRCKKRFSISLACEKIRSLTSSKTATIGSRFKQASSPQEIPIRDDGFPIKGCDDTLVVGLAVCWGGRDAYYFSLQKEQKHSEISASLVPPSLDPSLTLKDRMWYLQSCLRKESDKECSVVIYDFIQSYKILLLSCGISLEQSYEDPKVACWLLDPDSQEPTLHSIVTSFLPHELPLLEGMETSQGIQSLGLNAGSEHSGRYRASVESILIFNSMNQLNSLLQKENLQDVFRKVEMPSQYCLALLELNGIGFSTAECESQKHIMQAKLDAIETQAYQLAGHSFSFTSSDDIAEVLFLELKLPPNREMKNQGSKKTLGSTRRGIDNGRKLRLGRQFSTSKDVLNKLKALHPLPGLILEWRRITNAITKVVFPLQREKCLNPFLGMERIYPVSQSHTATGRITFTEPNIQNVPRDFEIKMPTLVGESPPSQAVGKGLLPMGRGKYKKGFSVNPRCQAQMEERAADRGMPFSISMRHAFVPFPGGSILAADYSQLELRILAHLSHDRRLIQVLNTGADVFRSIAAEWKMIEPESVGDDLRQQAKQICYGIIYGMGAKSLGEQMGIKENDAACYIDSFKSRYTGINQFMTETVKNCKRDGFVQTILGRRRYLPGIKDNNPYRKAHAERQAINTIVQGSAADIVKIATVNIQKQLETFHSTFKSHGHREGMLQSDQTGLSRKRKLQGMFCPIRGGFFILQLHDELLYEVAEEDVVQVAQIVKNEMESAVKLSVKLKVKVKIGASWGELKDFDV
SMILES,remaining activity
CSc1ccc(/C=C/c2nc3ccccc3n2S(=O)(=O)c2ccc(Br)cc2)cc1,52.1% and 54.6%
O=C(Nc1cc(-c2ccccc2)sc1C(=O)O)c1cccc(F)c1,59.7% and 61.6%
COc1cccc(C2C3=C(NN/C3=C3/C=CC=CC3=O)C(=O)N2CCc2ccc(OC)c(OC)c2)c1 (centres unmarked),58.1% and 59.6%
O=C(O)c1cccnc1Nc1cccc(C(F)(F)F)c1,60.8% and 64.4%
Cc1ccc(-c2n[nH]c3c2C(c2cccc(O)c2)N(c2ccc(C(=O)O)cc2)C3=O)cc1 (centres unmarked),63.5% and 64%
CC(=O)[C@]1(O)Cc2c(O)c3c(c(O)c2[C@@H](O[C@H]2C[C@H](N)[C@H](O)[C@H](C)O2)C1)C(=O)c1ccccc1C3=O,58.5% and 60.6% and 58.2% and 56.8%
CSc1ccc(/C=C/c2nc3ccccc3n2S(=O)(=O)c2cccc(Cl)c2)cc1,48.6% and 47.3%
COc1cccc2c1C(=O)c1c(O)c3c(c(O)c1C2=O)C[C@@](O)(C(=O)CO)C[C@@H]3O[C@H]1C[C@H](N)[C@@H](O)[C@H](C)O1,45.4% and 47.7%
Cc1ccc(C2C=C(c3ccccc3)N=C3N=C(NS(C)(=O)=O)NN32)cc1 (centres unmarked),89.7% and 90.7%
COc1cccc2c1C(=O)c1c(O)c3c(c(O)c1C2=O)C[C@@](O)(C(C)=O)C[C@@H]3O[C@H]1C[C@H](N)[C@H](O)[C@H](C)O1,53.8% and 51.8%

# Block 2 — observed: cell-free assay; method: competition with immobilised ligand; concentration: 1 µM
# SMILES: CN(C)C(=O)Cn1cc(-c2nc(C3(c4ccc(-c5cnc(N)nc5)cc4)CC3)no2)cn1
target,remaining binding
"Serine/threonine-protein kinase 33 (STK33, Homo sapiens, UniProt Q9BYT3)",99%
"Dual specificity protein kinase CLK3 (CLK3, Homo sapiens, UniProt P49761)",100%
"Tyrosine-protein kinase ABL1, phosphorylated (ABL1, Homo sapiens, UniProt P00519, T315I)",100%
"Microtubule-associated serine/threonine-protein kinase 1 (MAST1, Homo sapiens, UniProt Q9Y2H9)",100%
"Testis-specific serine/threonine-protein kinase 3 (TSSK3, Homo sapiens, UniProt Q96PN8)",97%
"Serine/threonine-protein kinase PAK 4 (PAK4, Homo sapiens, UniProt O96013)",100%
"Cyclin-dependent kinase 3 (CDK3, Homo sapiens, UniProt Q00526)",100%
"Ribosomal protein S6 kinase alpha-1, C-terminal kinase domain (RPS6KA1, Homo sapiens, UniProt Q15418)",100%
"NUAK family SNF1-like kinase 2 (NUAK2, Homo sapiens, UniProt Q9H093)",87%
"Mitogen-activated protein kinase kinase kinase kinase 4 (MAP4K4, Homo sapiens, UniProt O95819)",66%
"Tyrosine-protein kinase ITK/TSK (ITK, Homo sapiens, UniProt Q08881)",92%
"Mitogen-activated protein kinase 10 (MAPK10, Homo sapiens, UniProt P53779)",93%
"Tyrosine-protein kinase receptor Tie-1 (TIE1, Homo sapiens, UniProt P35590)",98%
"Calcium/calmodulin-dependent protein kinase kinase 1 (CAMKK1, Homo sapiens, UniProt Q8N5S9)",100%
"Mitogen-activated protein kinase kinase kinase 9 (MAP3K9, Homo sapiens, UniProt P80192)",91%
"Rhodopsin kinase GRK7 (GRK7, Homo sapiens, UniProt Q8WTQ7)",84%
"Tyrosine-protein kinase CSK (CSK, Homo sapiens, UniProt P41240)",100%
"G protein-coupled receptor kinase 4 (GRK4, Homo sapiens, UniProt P32298)",100%
"Phosphatidylinositol 4,5-bisphosphate 3-kinase catalytic subunit alpha isoform (PIK3CA, Homo sapiens, UniProt P42336)",76%
"TGF-beta receptor type-2 (TGFBR2, Homo sapiens, UniProt P37173)",100%
"Phosphorylase b kinase gamma catalytic chain, skeletal muscle/heart isoform (PHKG1, Homo sapiens, UniProt Q16816)",97%
"Serine/threonine-protein kinase D2 (PRKD2, Homo sapiens, UniProt Q9BZL6)",89%
"Phosphorylase b kinase gamma catalytic chain, liver/testis isoform (PHKG2, Homo sapiens, UniProt P15735)",91%
"G protein-coupled receptor kinase 3 (GRK3, Homo sapiens, UniProt P35626)",69%
"Serine/threonine-protein kinase PAK 3 (PAK3, Homo sapiens, UniProt O75914)",82%

# Block 3 — Compound: COc1cccc(-c2cc(=O)c3ccccc3o2)c1N; observed: enzyme activity; mode: inhibitor; concentration: 0.5 µM; reference: control
target,remaining activity [%]
"Cytoplasmic tyrosine-protein kinase BMX (BMX, Homo sapiens, UniProt P51813)",103
"Serine/threonine-protein kinase Sgk1 (SGK1, Homo sapiens, UniProt O00141)",102
"Ephrin type-A receptor 7 (EPHA7, Homo sapiens, UniProt Q15375)",98.6
"SRSF protein kinase 3 (SRPK3, Homo sapiens, UniProt Q9UPE1)",91
"Protein kinase C gamma type (PRKCG, Homo sapiens, UniProt P05129)",100
"Serine/threonine-protein kinase pim-2 (PIM2, Homo sapiens, UniProt Q9P1W9)",99.3
"Aurora kinase C (AURKC, Homo sapiens, UniProt Q9UQB9)",95.3
"Ribosomal protein S6 kinase beta-1 (RPS6KB1, Homo sapiens, UniProt P23443)",98
"Ephrin type-B receptor 2 (EPHB2, Homo sapiens, UniProt P29323)",88
"G protein-coupled receptor kinase 6 (GRK6, Homo sapiens, UniProt P43250)",90.7
"Serine/threonine-protein kinase PAK 2 (PAK2, Homo sapiens, UniProt Q13177)",104
"Myosin light chain kinase, smooth muscle (MYLK, Homo sapiens, UniProt Q15746)",98.9
"Ribosomal protein S6 kinase alpha-1 (RPS6KA1, Homo sapiens, UniProt Q15418)",92.7
"Beta-adrenergic receptor kinase 1 (GRK2, Homo sapiens, UniProt P25098)",99.6
"Macrophage colony-stimulating factor 1 receptor (CSF1R, Homo sapiens, UniProt P07333)",101
"Tyrosine-protein kinase CSK (CSK, Homo sapiens, UniProt P41240)",83.7
"NUAK family SNF1-like kinase 1 (NUAK1, Homo sapiens, UniProt O60285)",98.1
"Fibroblast growth factor receptor 4 (FGFR4, Homo sapiens, UniProt P22455)",104
"Protein kinase C epsilon type (PRKCE, Homo sapiens, UniProt Q02156)",82.4
"Receptor-type tyrosine-protein kinase FLT3 (FLT3, Homo sapiens, UniProt P36888)",96.3

# Block 4 — Structure (SMILES): C=CCc1ccc(O)c(-c2ccc(O)c(CC=C)c2)c1
# ANO1 del476-501/F628A: Anoctamin-1 (ANO1, Homo sapiens, UniProt Q5XXA6, del476-501/F628A)
# Chain of UniProt Q5XXA6 (whole entry, unmodified, looked up): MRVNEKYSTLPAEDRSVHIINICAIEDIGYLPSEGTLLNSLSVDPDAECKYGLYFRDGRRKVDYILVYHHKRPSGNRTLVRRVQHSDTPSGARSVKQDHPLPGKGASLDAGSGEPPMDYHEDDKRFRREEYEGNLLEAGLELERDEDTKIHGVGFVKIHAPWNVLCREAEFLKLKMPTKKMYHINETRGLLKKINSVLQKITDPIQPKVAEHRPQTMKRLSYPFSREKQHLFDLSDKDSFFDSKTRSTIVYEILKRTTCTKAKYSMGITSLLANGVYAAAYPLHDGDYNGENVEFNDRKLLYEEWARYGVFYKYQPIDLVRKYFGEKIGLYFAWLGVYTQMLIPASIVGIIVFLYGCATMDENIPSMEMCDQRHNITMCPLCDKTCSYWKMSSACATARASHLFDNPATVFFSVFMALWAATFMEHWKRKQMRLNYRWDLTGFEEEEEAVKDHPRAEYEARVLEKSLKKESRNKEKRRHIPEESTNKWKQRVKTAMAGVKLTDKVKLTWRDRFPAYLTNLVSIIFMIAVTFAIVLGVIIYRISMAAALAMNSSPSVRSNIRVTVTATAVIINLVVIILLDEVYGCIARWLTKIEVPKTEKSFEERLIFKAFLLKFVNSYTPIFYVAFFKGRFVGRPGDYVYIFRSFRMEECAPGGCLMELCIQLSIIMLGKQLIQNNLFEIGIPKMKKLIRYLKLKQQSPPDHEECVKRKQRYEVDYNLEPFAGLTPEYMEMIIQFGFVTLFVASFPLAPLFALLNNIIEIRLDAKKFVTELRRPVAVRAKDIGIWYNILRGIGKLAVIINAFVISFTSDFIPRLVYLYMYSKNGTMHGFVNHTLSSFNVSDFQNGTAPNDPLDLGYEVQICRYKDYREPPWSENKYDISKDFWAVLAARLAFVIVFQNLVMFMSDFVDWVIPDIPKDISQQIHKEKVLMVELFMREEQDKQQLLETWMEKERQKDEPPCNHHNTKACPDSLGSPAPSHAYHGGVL
# ANO1 del476-501/E659A/K629A: Anoctamin-1 (ANO1, Homo sapiens, UniProt Q5XXA6, del476-501/E659A/K629A)
# ANO1 del476-501: Anoctamin-1 (ANO1, Homo sapiens, UniProt Q5XXA6, del476-501)
# ANO1 del476-501/E649A: Anoctamin-1 (ANO1, Homo sapiens, UniProt Q5XXA6, del476-501/E649A)
target,test,conditions,normalized current
ANO1 del476-501/F628A,"chloride current, whole-cell voltage clamp","100 µM, concentration-response at 60 mV, added: 4 µM Ca2+",0.0857
"Anoctamin-1 (ANO1, Homo sapiens, UniProt Q5XXA6, del476-501/E659A)","chloride current, inside-out patch clamp","10 µM, membrane voltage 120 mV",1
ANO1 del476-501/E659A/K629A,"chloride current, inside-out patch clamp","10 µM, membrane voltage -60 mV",-0.578
ANO1 del476-501/F628A,"chloride current, whole-cell voltage clamp","1 µM, I-V at -60 mV, added: 4 µM Ca2+",-0.46
"Anoctamin-1 (ANO1, Homo sapiens, UniProt Q5XXA6)","chloride current, inside-out patch clamp","10 µM, membrane voltage 0 mV",-0.0004
TMEM16A (human) K603A/E623A,"chloride current, inside-out patch clamp","10 µM, membrane voltage 120 mV",1
ANO1 del476-501,"chloride current, whole-cell voltage clamp","3 µM, wild type, concentration-response at -40 mV, added: 4 µM Ca2+",-0.275
ANO1 del476-501,"chloride current, whole-cell voltage clamp","3 µM, wild type, I-V at 0 mV, added: 4 µM Ca2+",-0.0017
human TMEM16A K603A/E623A,"chloride current, inhibitor, inside-out patch clamp","10 µM, at -80 mV",-0.315
ANO1 del476-501,"chloride current, whole-cell voltage clamp","1 µM, wild type, concentration-response at 40 mV, added: 4 µM Ca2+",0.356
ANO1 del476-501/E659A/K629A,"chloride current, inside-out patch clamp","10 µM, membrane voltage 0 mV",-0.0012
ANO1 del476-501/F628A,"chloride current, whole-cell voltage clamp","10 µM, concentration-response at -80 mV, added: 4 µM Ca2+",-0.557
ANO1 del476-501/F628A,"chloride current, whole-cell voltage clamp","30 µM, I-V at 80 mV, added: 4 µM Ca2+",0.377
ANO1 del476-501/E659A/K629A,"chloride current, inside-out patch clamp","10 µM, membrane voltage 40 mV",0.329
"Anoctamin-1 (ANO1, Homo sapiens, UniProt Q5XXA6, del476-501/K629A)","chloride current, inside-out patch clamp","10 µM, membrane voltage 100 mV",0.751
ANO1 del476-501/F628A,"chloride current, whole-cell voltage clamp","10 µM, I-V at -80 mV, added: 4 µM Ca2+",-0.516
ANO1 del476-501/E649A,"chloride current, inhibitor, inside-out patch clamp","10 µM, E623A mutant at -80 mV",-0.563
ANO1 del476-501,"chloride current, whole-cell voltage clamp","30 µM, wild type, concentration-response at 80 mV, added: 4 µM Ca2+",0.0492
ANO1 del476-501/E649A,"ion current, inside-out patch clamp","10 µM, E623A mutant at -20 mV",-0.144

# Repeated from above (block 3):
target,remaining activity [%]
"SRSF protein kinase 3 (SRPK3, Homo sapiens, UniProt Q9UPE1)",91
"Cytoplasmic tyrosine-protein kinase BMX (BMX, Homo sapiens, UniProt P51813)",103
"Ribosomal protein S6 kinase beta-1 (RPS6KB1, Homo sapiens, UniProt P23443)",98
"Fibroblast growth factor receptor 4 (FGFR4, Homo sapiens, UniProt P22455)",104
"Aurora kinase C (AURKC, Homo sapiens, UniProt Q9UQB9)",95.3
"Receptor-type tyrosine-protein kinase FLT3 (FLT3, Homo sapiens, UniProt P36888)",96.3
